Experimental data collected from several papers.
Parts stem from different laboratories: compare values within a part only. Changes are numbered by the printed parent chain.

Series 1
Target: CCNB1, cyclin fold, Cln2 fusion (human)
Technique: yeast growth competition, sequencing
Medium: yeast
Setting: weak parent motif
Baseline: not given
Direction: higher = stronger binding
Starting sequence: CDC25A docking peptide (human); PPHRRRLLFACSP
Change	normalised enrichment score
P13M	0.308
C11L	0.432
P2Y	1.12
F9I	0.72
F9N	0.406
H3P	0.224

Series 2
Target: RNA binding protein fox-1 homolog 2, RRM domain, GST-SBP tag (RBFOX2, Homo sapiens, UniProt O43251-10, residues 100-194)
Technique: RNA Bind-n-Seq
Molecule type: RNA
Medium: in vitro
Concentration: 365 nM
Setting: natural RNA segment, single round, ends assumed
Baseline: no-protein control
Direction: higher = stronger binding
Constant ends, left off below: GGGAGUUCUACAGUCCGACGAUC … UGGAAUUCUCGGGUGCCAA
Sequence	RBNS enrichment (R)
UCUCAUUUUUUAUACUAAGCAAUAACUUUCCAAAGCAAGAAGUUCAGGAUGGAGAGAGUCCCCUCCUGUGUAGGCAUGGGGUGGAUGCGGUGCCCACCUGGGCUAUGUGG	1.2
UCUCUUCCCUGCGCCUGUGAUGCUGGGCACUUCAUCUGAUCGGGGGCGUAGCAUCAUAGUAGUUUUUACAGCUGUGUUAUUCUUUGCGUGUAGCUAUGGAAGUUGCAUAA	0.396
GGGUUUGUCUCCAGAACAGAAGAGAAUGAUGGAUAUUCUGGCUCUGGGGCCCUCUCCACCACCACUCACAGUAGCCUUGCUGAAGCCAUCACAGAUGGGAGAAGGCCAUG	1.61
GCAUGUAGUCACUUUAUAAGUCAUUGUAUGUUAUUAUAUUCCGUAGGUAGAUGUGUAACCUCUUCACCUUAUUCAUGGCUGAAGUCACCUCUUGGUUACAGUAGCGUAGC	1.34
CCUGUAAUUACUGCCUUGCCAUUCUGCCCCUGGACCCUUCUCUCCGGACCAGGGAGGCGUCCCUCCCUAGGAGCCACACAUUAUACUCCAAGUCCCUGCCGGGCUCCGCC	0.732
GCGAGAUGAGAUGUCAUUUCUGCUUUGGAGAAGGCAAGUUUAAUGAAGAGAAAGAAAAACAGGAGCAGUUGCUACUGAGACUCCUCGAAUACCAUCGGCUGCACCUUGCA	11.9
UGGCUGACCCGAGCGAGGUAUUAUCUCGGUCUUCAGCCGCUGGAGUUUCAGGGCUGGGCAGCAGGUUACUGGAGAGGCAGGCAAGAAGCGUCCUUACCUUCUCUCAUUCC	0.369

Series 3
Target: PABPC1L2, full length, GST fusion (mouse, UniProt A0ABA7IW68)
Technique: RNAcompete
Molecule type: RNA
Medium: in vitro
Concentration: 20 nM
Setting: 7-mer, probes averaged, single round
Baseline: mean of 7-mers
Direction: higher = stronger binding
Sequence	7-mer Z-score
CAUCUGA	-0.159
UAACCUU	-0.331
CAAACUA	0.196
CAGGUUG	-0.0627
CGACCCU	-0.222

Further values, each from its own experiment
Substance	target	test	system	setting	how to read	quantity	result
PhoQ, residues 284 288 289 292 302 303 AGGCYF	PhoP, residues 12 14 15 18 19 SYFRT (Escherichia coli, UniProt P23836)	Sort-seq, refers to: YFP reporter	E. coli	PhoQ-PhoP variant library, together with: 10 µM Mg2+	baseline: high Mg2+ state, higher = stronger signaling	fold induction	1.84

Repeated from above (series 1):
Change	normalised enrichment score
P13M	0.308
C11L	0.432
